Results pooled from the literature.
Every numbered part comes from another study and shows a few of its results, in no order. Substitutions count along the parent as printed.
Sequence of UniProt O43567 (whole entry, looked up): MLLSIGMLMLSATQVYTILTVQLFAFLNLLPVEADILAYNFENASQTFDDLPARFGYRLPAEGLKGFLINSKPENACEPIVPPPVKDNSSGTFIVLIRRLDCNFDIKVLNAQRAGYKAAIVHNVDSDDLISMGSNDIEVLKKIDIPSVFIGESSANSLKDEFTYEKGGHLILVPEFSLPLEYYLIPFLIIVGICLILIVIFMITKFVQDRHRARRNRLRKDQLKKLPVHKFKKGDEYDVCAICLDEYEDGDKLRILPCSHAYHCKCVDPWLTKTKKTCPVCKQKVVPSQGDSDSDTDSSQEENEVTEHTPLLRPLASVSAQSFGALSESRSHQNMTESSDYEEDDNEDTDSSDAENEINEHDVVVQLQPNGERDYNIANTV
Sequence of UniProt Q9BY78 (whole entry, looked up): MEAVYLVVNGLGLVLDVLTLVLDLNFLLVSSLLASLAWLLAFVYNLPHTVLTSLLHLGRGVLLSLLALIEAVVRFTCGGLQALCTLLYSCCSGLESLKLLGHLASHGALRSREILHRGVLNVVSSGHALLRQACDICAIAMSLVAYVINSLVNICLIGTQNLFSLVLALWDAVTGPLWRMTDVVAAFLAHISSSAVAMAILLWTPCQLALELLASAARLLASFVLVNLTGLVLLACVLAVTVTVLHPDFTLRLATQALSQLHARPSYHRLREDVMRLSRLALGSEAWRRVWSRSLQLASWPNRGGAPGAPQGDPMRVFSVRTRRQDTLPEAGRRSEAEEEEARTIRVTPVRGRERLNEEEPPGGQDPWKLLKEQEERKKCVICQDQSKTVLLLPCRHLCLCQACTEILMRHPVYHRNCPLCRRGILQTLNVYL
Sequence of UniProt Q9UNE7 (whole entry, looked up): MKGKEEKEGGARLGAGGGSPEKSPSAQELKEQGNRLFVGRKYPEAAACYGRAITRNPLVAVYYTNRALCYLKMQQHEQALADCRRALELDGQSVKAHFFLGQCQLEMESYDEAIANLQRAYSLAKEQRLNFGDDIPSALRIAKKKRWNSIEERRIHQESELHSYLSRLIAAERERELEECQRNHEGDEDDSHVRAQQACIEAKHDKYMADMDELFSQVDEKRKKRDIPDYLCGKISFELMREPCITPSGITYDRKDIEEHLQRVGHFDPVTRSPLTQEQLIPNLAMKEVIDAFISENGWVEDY

Sample 1
Target: HLA class I histocompatibility antigen, A alpha chain, allele A*25:01 (Homo sapiens, UniProt P04439)
Read-out: peptide-MHC binding
Form: peptide
Tested at: concentration not given
Endpoint: binding
VVPSYIPLV: inactive
DETFVHSGF: inactive
RRFTQAIYD: inactive
KLGEGFKSL: inactive
RLDKPLWLH: inactive
SQYDPKELL: inactive
YAMMSLFDM: inactive
LPSCPTNFCIF: inactive

Sample 2
Target: UBE2A UBC core domain (UniProt P49459)
Sequence of UniProt P49459 (whole entry, looked up): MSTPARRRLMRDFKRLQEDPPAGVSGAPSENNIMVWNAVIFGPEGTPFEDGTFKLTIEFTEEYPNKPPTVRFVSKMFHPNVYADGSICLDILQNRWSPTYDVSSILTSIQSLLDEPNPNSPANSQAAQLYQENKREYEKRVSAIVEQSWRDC
Method: yeast two-hybrid
Medium: yeast
Notes: mostly zero background
Reference: not given
Direction: higher = stronger interaction
Endpoint: lacZ reporter activity
RNF26 RING domain (UniProt Q9BY78): 0
STUB1 RING domain (UniProt Q9UNE7): 0
RNF13 RING domain (UniProt O43567): 0

Sample 3
Target: CCNB2, cyclin fold, Cln2 fusion (human)
Method: yeast growth competition, sequencing
Medium: yeast
Notes: strong parent motif
Reference: not given
Direction: higher = stronger binding
Endpoint: normalised enrichment score
Starting sequence: viral docking peptide; TSVRRALFTGGSD
TWVRRALFTGGSD [S2W]: -0.118
TSVTRALFTGGSD [R4T]: 0.05
TSVRDALFTGGSD [R5D]: -0.168
TSVRNALFTGGSD [R5N]: 0.0617
TSVRRALHTGGSD [F8H]: 0.667
TSVRRADFTGGSD [L7D]: -0.047
TAVRRALFTGGSD [S2A]: 0.41
TSIRRALFTGGSD [V3I]: 1.44
TSVYRALFTGGSD [R4Y]: 0.138
TSVRRALFTDGSD [G10D]: 1.08
TSVRRALFTGISD [G11I]: 0.318
TSVRRAKFTGGSD [L7K]: 0.459
TSVRRALFTGESD [G11E]: 1.19
TSVRSALFTGGSD [R5S]: 0.164
TSARRALFTGGSD [V3A]: 0.45

Sample 4
Target: Interferon regulatory factor 5, full length, phosphomimetic (IRF5, Homo sapiens, UniProt Q13568-2, residues 1-514, K96S/S451D/S453D/S456D/S462D)
Method: protein-binding microarray
Form: double-stranded DNA, one strand shown
Medium: in vitro
Tested at: 250 nM
Notes: 60-bp whole probe
Added: salmon DNA 0.4 mg/ml
Reference: random background probes
Direction: higher = stronger binding
Endpoint: log fluorescence
Constant ends, left off below: GCCTAGCAC … GTCTTGATTCGCTTGACGCTGCTG
TTAGATCTCAGACTGGTTTAGTGCTAG: -0.138 z-score
TTAGGACTACTTATCCTTTAGTGCTAG: -0.22 z-score
TTAGCTTTCCTTCTCCTTTAGTGCTAG: 1.43 z-score
GACGGACTGGACTATTGGGACGTGCTA: -0.38 z-score
GACGATTTCTGTTTCGAGACGTGCTAG: 5.74 z-score
GTGGGAAACCGGAAAGGCAAAGTGCTA: -0.0342 z-score
TTAGGACTGCTTTTCCATTAGTGCTAG: -0.116 z-score
GTCGGACTGGGTTTCGGGACGTGCTAG: 2.43 z-score

Excerpt of the above (sample 3):
TSVRDALFTGGSD [R5D]: -0.168
TWVRRALFTGGSD [S2W]: -0.118
